{"data": "Measured values from different studies", "U2AF2": "U2AF2 148-342 (Homo sapiens, UniProt P26368)", "EIF4E2": "EIF4E2 (Homo sapiens, UniProt O60573)", "CXCR2": "C-X-C chemokine receptor type 2 (CXCR2, Homo sapiens, UniProt P25025)", "note": "Protocols differ between the studies behind these lines. ± gives the spread as reported.", "chain of UniProt O60573 (whole entry, looked up)": "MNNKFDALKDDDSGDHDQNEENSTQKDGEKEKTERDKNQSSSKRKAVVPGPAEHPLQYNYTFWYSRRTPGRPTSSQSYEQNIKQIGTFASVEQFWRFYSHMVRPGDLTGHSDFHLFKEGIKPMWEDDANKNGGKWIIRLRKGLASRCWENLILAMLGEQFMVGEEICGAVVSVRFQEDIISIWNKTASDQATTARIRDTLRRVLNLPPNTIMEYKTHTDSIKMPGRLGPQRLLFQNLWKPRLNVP", "chain of UniProt P26368 (whole entry, looked up)": "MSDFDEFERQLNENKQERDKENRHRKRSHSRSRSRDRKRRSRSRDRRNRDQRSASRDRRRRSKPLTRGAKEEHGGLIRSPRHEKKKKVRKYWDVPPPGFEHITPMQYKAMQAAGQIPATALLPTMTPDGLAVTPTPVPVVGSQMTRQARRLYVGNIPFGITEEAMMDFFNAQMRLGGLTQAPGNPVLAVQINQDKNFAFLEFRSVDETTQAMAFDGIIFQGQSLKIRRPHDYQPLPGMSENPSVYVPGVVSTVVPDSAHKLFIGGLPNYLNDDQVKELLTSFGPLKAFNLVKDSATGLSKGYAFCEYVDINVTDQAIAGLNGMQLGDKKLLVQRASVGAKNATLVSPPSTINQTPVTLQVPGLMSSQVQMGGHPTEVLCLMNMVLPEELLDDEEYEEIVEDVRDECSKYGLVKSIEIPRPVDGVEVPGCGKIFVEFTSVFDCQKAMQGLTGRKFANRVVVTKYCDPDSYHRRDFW", "chain of UniProt P84090 (whole entry, unmodified, looked up)": "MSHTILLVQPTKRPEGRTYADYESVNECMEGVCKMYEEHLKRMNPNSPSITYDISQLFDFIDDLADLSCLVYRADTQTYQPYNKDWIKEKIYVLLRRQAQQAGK", "chain of UniProt P25025 (whole entry, looked up)": "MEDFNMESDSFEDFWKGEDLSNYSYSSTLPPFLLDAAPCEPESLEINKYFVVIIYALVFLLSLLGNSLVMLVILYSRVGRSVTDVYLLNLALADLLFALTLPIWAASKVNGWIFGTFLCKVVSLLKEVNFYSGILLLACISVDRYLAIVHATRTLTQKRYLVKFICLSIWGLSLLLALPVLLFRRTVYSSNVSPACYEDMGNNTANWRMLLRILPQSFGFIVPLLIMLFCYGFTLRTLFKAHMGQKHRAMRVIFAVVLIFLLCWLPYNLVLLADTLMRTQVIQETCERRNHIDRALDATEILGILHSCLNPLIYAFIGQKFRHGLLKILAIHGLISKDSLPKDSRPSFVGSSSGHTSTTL", "chain of UniProt P20029 (whole entry, looked up)": "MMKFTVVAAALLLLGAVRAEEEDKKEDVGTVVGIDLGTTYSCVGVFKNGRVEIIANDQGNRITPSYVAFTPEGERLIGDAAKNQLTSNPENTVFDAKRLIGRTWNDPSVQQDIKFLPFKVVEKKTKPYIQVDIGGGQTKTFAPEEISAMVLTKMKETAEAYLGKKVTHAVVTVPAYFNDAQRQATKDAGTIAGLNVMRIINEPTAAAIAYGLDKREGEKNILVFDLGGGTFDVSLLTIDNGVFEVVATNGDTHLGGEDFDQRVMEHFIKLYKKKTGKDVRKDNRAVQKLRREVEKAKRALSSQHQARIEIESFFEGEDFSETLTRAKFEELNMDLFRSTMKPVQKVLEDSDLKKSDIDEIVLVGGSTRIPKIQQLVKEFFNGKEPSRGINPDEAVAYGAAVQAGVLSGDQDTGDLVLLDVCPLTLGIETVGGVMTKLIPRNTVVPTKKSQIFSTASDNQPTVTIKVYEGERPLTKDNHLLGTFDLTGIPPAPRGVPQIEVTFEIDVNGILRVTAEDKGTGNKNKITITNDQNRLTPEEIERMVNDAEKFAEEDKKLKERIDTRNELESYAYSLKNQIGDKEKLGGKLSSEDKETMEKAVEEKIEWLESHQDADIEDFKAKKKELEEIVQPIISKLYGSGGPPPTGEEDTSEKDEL", "chain of UniProt Q9QUK6 (whole entry, looked up)": "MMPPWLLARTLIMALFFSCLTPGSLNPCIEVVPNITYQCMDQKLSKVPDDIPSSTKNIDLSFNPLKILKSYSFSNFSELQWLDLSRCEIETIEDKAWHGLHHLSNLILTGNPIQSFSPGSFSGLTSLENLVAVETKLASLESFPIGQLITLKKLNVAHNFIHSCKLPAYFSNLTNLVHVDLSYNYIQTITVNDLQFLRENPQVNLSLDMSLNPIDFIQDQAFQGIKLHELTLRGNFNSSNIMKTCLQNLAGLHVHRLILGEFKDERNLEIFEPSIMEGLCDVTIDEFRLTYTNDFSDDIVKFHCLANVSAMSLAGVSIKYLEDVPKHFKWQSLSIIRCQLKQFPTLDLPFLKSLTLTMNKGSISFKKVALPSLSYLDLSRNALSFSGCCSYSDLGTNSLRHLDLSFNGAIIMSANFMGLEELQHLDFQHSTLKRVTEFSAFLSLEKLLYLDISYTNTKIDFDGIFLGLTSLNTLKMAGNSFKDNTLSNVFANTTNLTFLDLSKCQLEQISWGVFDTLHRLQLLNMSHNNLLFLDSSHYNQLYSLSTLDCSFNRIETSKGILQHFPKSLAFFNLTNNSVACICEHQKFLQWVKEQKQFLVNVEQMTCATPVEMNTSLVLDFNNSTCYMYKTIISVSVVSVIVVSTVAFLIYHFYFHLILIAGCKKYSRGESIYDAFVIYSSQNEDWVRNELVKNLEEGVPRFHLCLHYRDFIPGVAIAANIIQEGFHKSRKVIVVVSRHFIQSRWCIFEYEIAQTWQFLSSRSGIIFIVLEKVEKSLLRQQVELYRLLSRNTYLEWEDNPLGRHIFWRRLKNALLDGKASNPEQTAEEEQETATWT", "chain of UniProt Q16620 (whole entry, looked up)": "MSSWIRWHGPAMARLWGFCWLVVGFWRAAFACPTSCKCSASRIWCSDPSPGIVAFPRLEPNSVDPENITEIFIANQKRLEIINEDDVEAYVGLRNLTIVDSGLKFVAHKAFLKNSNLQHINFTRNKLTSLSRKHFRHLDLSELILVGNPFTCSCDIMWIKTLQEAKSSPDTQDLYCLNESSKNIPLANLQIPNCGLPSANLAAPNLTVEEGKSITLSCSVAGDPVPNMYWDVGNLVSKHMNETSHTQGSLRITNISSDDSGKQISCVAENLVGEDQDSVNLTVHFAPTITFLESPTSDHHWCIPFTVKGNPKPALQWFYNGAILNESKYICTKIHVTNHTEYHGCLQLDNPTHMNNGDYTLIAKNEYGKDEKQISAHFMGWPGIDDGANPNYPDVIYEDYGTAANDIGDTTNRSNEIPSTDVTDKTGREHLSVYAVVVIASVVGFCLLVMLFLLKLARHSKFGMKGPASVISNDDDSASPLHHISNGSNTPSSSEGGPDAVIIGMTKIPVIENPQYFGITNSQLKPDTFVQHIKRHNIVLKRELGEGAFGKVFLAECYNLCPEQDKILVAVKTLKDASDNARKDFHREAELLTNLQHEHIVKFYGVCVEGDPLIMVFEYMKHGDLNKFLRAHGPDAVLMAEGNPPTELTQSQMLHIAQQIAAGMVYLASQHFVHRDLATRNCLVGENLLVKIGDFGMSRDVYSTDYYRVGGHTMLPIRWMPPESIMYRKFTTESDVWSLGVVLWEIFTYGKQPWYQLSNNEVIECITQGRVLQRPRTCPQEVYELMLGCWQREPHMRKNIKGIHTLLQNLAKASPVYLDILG"}
{"Molecule": "pro-IGF-2", "target or system": "Endoplasmic reticulum chaperone BiP (Hspa5, Mus musculus, UniProt P20029)", "test": "FRET", "setting": "pH 6.0, 37 °C, oligomer proximity, added: ADP", "measurement": "client concentration at maximal FRET", "value": "0.3 µM"}
{"Molecule": "CCCACUUUU (ssRNA)", "target or system": "U2AF2", "test": "sequencing of bound RNA", "test system": "RNA", "setting": "motif only", "measurement": "Kd", "value": "8.02 µM"}
{"Molecule": "HMGB1", "target or system": "Toll-like receptor 4 (Mus musculus, UniProt Q9QUK6)", "test": "fluorescence titration", "setting": "pH 7.4, 25 °C, added: BODIPY FL-labelled alarmin", "measurement": "Kd", "value": "0.186 µM"}
{"Molecule": "human CCL3", "target or system": "CCR5 (Homo sapiens, UniProt P51681)", "test": "β-arrestin recruitment, agonist, Tango", "test system": "U2OS", "measurement": "EC80", "value": "0.014 µM"}
{"Molecule": "KYKLADYRYGREEMLALYVK (GIGYF1(33-52) peptide; sequence looked up)", "target or system": "EIF4E2", "test": "ITC", "test system": "peptide", "setting": "pH 7.0, 20 °C, GB1-stabilized peptide titration", "measurement": "-TΔS", "value": "14.6 kcal/mol"}
{"Molecule": "POTE ankyrin domain E (human)", "target or system": "CYB5R4 knockout human cells", "test": "PP6 interaction, 3xFLAG-PP6C IP-MS", "setting": "concentration not given", "scale": "reference: CYB5R4 KO over parental", "measurement": "log2 fold change", "value": 0.09}
{"Molecule": "hepatocyte growth factor", "target or system": "MET (Homo sapiens, UniProt P08581)", "test": "receptor phosphorylation, immunoblotting", "test system": "Flp-In-293 expressing MET", "setting": "10 min", "measurement": "lowest maximal concentration", "value": "12 nM"}
{"Molecule": "PRTARHAPAVRKFSPDLKLLKDVKISVSFTE (DGCR8(96-126), SUMO-tagged)", "target or system": "Enhancer of rudimentary homolog (Homo sapiens, UniProt P84090, T18A)", "test": "binding, isothermal titration calorimetry", "test system": "peptide", "setting": "293 K, added: DGCR8 peptide, SUMO-tagged", "measurement": "Kd", "value": "22.4 ± 9.98 µM"}
{"Molecule": "BDNF", "target or system": "NTRK2 (Homo sapiens, UniProt Q16620)", "test": "receptor phosphorylation, immunoblotting", "test system": "Flp-In-293 expressing NTRK2", "setting": "10 min", "measurement": "lowest maximal concentration", "value": "4 nM"}
{"Molecule": "KYKLADYRYGREEMLALFLK (GIGYF2(35-54) peptide; sequence looked up)", "target or system": "EIF4E2", "test": "ITC", "test system": "peptide", "setting": "pH 7.0, 20 °C, GB1-stabilized peptide titration", "measurement": "ΔG", "value": "-8.8 kcal/mol"}
{"Molecule": "IL-8", "target or system": "CXCR2", "test": "binding, agonist radioligand displacement", "measurement": "IC50", "value": "0.00032 µM"}
{"Molecule": "interleukin-8", "target or system": "CXCR2", "test": "radioligand binding, agonist", "setting": "reference compound", "measurement": "Hill coefficient", "value": 1.3}
{"Molecule": "AUUAUUGAA (ssRNA)", "target or system": "U2AF2", "test": "sequencing of bound RNA", "test system": "RNA", "setting": "motif only", "measurement": "Kd", "value": "3.44 µM"}
{"Molecule": "human major vault protein", "target or system": "CYB5R4 knockout human cells", "test": "PP4 interaction, 3xFLAG-PP4C IP-MS", "setting": "concentration not given", "scale": "reference: CYB5R4 KO over parental", "measurement": "log2 fold change", "value": 2.31}
{"Molecule": "PRTARHAPAVRKASPDLKLLKDVKISVSFTE (DGCR8 peptide F108A)", "target or system": "Enhancer of rudimentary homolog (Homo sapiens, UniProt P84090)", "test": "DGCR8 peptide binding, ITC", "test system": "peptide", "setting": "293 K", "measurement": "ΔH", "value": "-5.26 ± 0.858 kcal/mol"}
{"note": "Some of these lines once more:"}
{"Molecule": "interleukin-8", "target or system": "CXCR2", "test": "radioligand binding, agonist", "setting": "reference compound", "measurement": "Hill coefficient", "value": 1.3}
